Experimental data pooled from the literature.
Every numbered part comes from another study and shows a few of its results, in no order. Substitutions count along the parent as printed.

Series 1 — technique: RNA Bind-n-Seq; form: RNA; medium: in vitro; concentration: 1 µM; notes: whole 134-nt RNA, ends assumed; together with: 150 mM KCl; relative to: input library; reading: higher = stronger binding
Target: Ras GTPase-activating protein-binding protein 1, RRM domain (G3BP1, Homo sapiens, UniProt Q13283)
UniProt Q13283, sequence (whole entry, looked up): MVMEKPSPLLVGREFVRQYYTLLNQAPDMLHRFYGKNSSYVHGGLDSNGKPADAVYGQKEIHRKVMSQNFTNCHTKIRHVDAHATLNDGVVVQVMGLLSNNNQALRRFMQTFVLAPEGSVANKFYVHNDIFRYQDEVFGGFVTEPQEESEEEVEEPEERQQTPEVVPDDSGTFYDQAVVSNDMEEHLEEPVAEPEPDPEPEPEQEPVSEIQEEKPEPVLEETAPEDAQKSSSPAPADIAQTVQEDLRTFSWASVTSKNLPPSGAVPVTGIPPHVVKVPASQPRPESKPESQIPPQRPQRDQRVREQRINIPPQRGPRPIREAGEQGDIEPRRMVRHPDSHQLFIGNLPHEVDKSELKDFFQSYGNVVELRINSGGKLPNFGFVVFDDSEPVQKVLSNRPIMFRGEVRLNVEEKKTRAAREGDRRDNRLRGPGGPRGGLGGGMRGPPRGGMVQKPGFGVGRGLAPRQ
All sequences stand within: GGGAGUUCUACAGUCCGACGAUC … UGGAAUUCUCGGGUGUCAAGG
| Sequence | log2 enrichment |
| --- | --- |
| UGGGGAGACUACGAUGACAGCGCCUUCAUGGAGCCCAGGUACCACGUCCGUGGAGAAGAUCUGGACAAGCUCCACAGAGCUGCCUGGUGG | -0.509 |
| UCAAGUCCUGUGCUACACAUCGUAUGUACCGAAUCGGGCCGGGCCGGGCCGGGGAAAGUAUUAUGUUACGCCGUUCGGAUCUGCACUUCC | -0.636 |
| UAACUUUAGAGGAGGAUCUGAUGGAUAUGGCAGUGGACGUGGAUUUGGGGAUGGCUAUAAUGGGUAUGGAGGAGGACCUGGUGGUGGCAA | -0.488 |
| UGGCCCAGGUGGCAUGCGGGGAGGAAGAGGUGGCCUCAUGGAUCGUGGUGGUCCCGGUGGAAUGUUCAGAGGUGGCCGUGGUGGAGACAG | 0.608 |
| AGUCCUGUGCUACACAUCGUAUGUACCGAAUCGGGAGGGUUUUUGGGUUUUUUUGGGAAAGUAUUAUGUUACGCCGUUCGGAUCUGCACU | 0.298 |
| UCCUGUGCUACACAUCGUAUGUACCGAAUCGGGUUUUUUUGGGAAAAAAAGGGAAAGGGAAAGUAUUAUGUUACGCCGUUCGGAUCUGCA | -0.296 |
| UGGCCCUGGUGGCAUGCGGGGAGGAAGAGGUGGCCUCAUGGAUCGUGUUGGUCCCGGUGGAAUGUUCAGAGGUGGCCGUGGUGGAGACAG | 0.854 |
| UGUAACCUGGGGAUUCUCUCAACUCUCUUGUCCCACACAGACUUCUAUGAGGAAAUCCAGGAGUUUGUGAAAGAUGUCUUUUCACCUAUA | 0.0801 |
| CUGUGCUACACAUCGUAUGUACCGAAUCGGGCCCCCCCGGCCCCCCCGGGCCCCCCCGGGGAAAGUAUUAUGUUACGCCGUUCGGAUCUG | -0.755 |
| GGGGACGGCAAAACAGAACAGAAAGGCGGAGAUAAAAAGAGGGGUGUUAAAAGACCACGAGAAGAUCAUGGCCGUGGAUAUUUUGAGUAC | 0.0964 |

Series 2 — technique: protein binding microarray; form: double-stranded DNA, one strand shown; medium: in vitro; concentration: not given; relative to: not given; reading: higher = stronger binding
Target: Histone acetyltransferase KAT6A, winged helix 2, GST fusion (KAT6A, Homo sapiens, UniProt Q92794, residues 85-181)
Notes: 8-mer, flanks averaged, mean of 2 arrays, mostly near background
Residues (chain): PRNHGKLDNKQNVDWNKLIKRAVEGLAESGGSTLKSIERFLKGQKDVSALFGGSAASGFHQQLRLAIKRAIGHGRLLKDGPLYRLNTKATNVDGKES
| Sequence | E-score |
| --- | --- |
| ATGTAGCG | -0.0605 |
| GTCCAGCA | 0.00645 |
| GAGGTCCC | 0.0228 |
| GGAGTTTA | 0.0258 |
| TAGTTACA | -0.0764 |
| CACTGGAA | 0.0147 |
| TCAGACAA | -0.163 |
| ACCAGCAC | -0.0538 |
| CTTCAGTC | 0.124 |
| CTTGGCAC | 0.138 |
| CCGCAGCC | 0.133 |
| CACGAATA | -0.000425 |
| GAAGCACC | -0.024 |
| CCAAGACA | 0.0461 |
| TAGTAAGA | 0.0791 |
| AAAGAGAT | -0.0828 |
| GGGATCTA | -0.157 |
| AAAATAAA | 0.049 |

Series 3 — target: UBE2I UBC core domain (UniProt P63279); technique: yeast two-hybrid; medium: yeast; notes: mostly zero background; relative to: not given; reading: higher = stronger interaction
B1: RNF17 RING domain (UniProt Q9BXT8); chain SQPWGAAEIQCTRCGRRVSRSSGHHCELQCGHAFCELCLLMTEECTTIICPDCEVATAVNTRQR
B2: RNF115 RING domain (UniProt Q9Y4L5); chain TQEQVDMGLECPVCKEDYTVEEEVRQLPCNHFFHSSCIVPWLELHDTCPVCRKSLNGEDSTR
B3: TRIM74 RING domain (UniProt Q86UV6); chain SLLELEDWLQCPICLEVFKESLMLQCGHSYCKGCLVSLSYHLDTKVRCPMCWQVVDGSSSLP
B4: TRIM34 RING domain (UniProt Q9BYJ4); chain ILLNVQEEVTCPICLELLTEPLSLDCGHSLCRACITVSNKEAVTSMGGKSSCPVCGISYSFEHLQA
B5: RMND5B RING domain (UniProt Q96G75); chain MKCWYHSVFACPILRQQTSDSNPPIKLICGHVISRDALNKLINGGKLKCPYCPMEQNPADGK
| Sequence | lacZ reporter activity |
| --- | --- |
| KITELNPHLMCALCGGYFIDATTIVECLHSFCKTCIVRYLETNKYCPMCDVQVHKTRPLL (PCGF2 RING domain (UniProt P35227)) | 0 |
| MEEMEEELKCPVCGSFYREPIILPCSHNLCQACARNILVQTPESESPQSHRAAGSGVSDY (TRIM9 RING domain (UniProt Q9C026)) | 0 |
| B1 (RNF17 RING domain) | 0 |
| AAQLLEEKLTCAICLGLYQDPVTLPCGHNFCGACIRDWWDRCGKACPECREPFPDGAELR (TRIM65 RING domain (UniProt Q6PJ69)) | 0 |
| B2 (RNF115 RING domain) | 0 |
| B3 (TRIM74 RING domain) | 0 |
| B4 (TRIM34 RING domain) | 0 |
| B5 (RMND5B RING domain) | 0 |

Series 4 — technique: universal PBM; form: double-stranded DNA, one strand shown; medium: in vitro; concentration: not given; reading: higher = stronger binding
Target: Sal-like protein 4, full length isoform B (SALL4, Homo sapiens, UniProt Q9UJQ4-2, residues 1-616)
Notes: 8-mer, flanks averaged, mean of replicates
| Sequence | E-score |
| --- | --- |
| AGTTACTA | 0.127 |
| ACGGGTCG | -0.156 |
| ACAGCAGA | 0.0309 |
| ACATGCCA | -0.0115 |
| GAAGTGTC | -0.0321 |
| ACCAACCG | -0.218 |
| AAATCAAA | 0.312 |
| CATCCGCC | -0.215 |
| AGCCTTTA | 0.0815 |
| CGCAATTC | 0.00344 |
| ATTCTCCC | -0.0512 |
| CTAAACGC | -0.0399 |
| GACTGCAA | -0.063 |
| CAACAAGC | -0.0942 |
| CGCCACAG | -0.228 |
| GCAAATGC | -0.102 |
| AATAGTGT | 0.246 |
| ATAGCACG | 0.0626 |
| CGCGGAAA | -0.161 |
| GACCCGTC | -0.317 |
| CGCGGCTC | -0.268 |
| AGGGCTAC | -0.133 |

Series 5 — technique: DHFR PCA, deep sequencing; medium: yeast; together with: (+)-ABA 1.4 µM; relative to: wild-type fitted maximum; reading: higher = stronger binding
Target: ABI1, truncated, D143A, DHFR fusion (Arabidopsis thaliana)
Notes: methotrexate growth selection, single substitutions
Parent: PYL1, truncated, DHFR fusion (Arabidopsis thaliana); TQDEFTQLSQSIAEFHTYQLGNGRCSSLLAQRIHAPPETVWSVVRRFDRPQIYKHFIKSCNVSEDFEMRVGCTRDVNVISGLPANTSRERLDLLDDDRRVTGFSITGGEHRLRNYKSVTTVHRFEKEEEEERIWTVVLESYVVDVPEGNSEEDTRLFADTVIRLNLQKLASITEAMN; partner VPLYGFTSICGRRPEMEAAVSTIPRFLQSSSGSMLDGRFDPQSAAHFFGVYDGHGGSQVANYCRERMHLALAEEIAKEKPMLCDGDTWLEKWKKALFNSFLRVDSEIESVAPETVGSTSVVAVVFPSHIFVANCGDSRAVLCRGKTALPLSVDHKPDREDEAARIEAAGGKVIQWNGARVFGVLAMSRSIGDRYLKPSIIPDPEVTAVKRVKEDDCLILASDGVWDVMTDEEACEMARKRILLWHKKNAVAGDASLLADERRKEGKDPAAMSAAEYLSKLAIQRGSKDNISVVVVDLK
| Variant | relative binding score |
| --- | --- |
| I105D | -0.496% |
| D75T | 82.2% |
| I33H | 6.44% |
| R113E | 27.7% |
| E125M | 58% |
| D48N | 23.7% |
| Q31V | 13.5% |
| E128V | 42.9% |
| D95N | 26.8% |
| F157H | 12% |
| Q167P | 4.76% |
| L112G | -3.15% |
| V143Q | -2.8% |
| S87A | 9.21% |
| T17G | -2.38% |
| L112A | -5.49% |
| N149V | 39% |
| R111D | -18.3% |

A few entries again (series 1):
| Sequence | log2 enrichment |
| --- | --- |
| CUGUGCUACACAUCGUAUGUACCGAAUCGGGCCCCCCCGGCCCCCCCGGGCCCCCCCGGGGAAAGUAUUAUGUUACGCCGUUCGGAUCUG | -0.755 |
| UGGCCCUGGUGGCAUGCGGGGAGGAAGAGGUGGCCUCAUGGAUCGUGUUGGUCCCGGUGGAAUGUUCAGAGGUGGCCGUGGUGGAGACAG | 0.854 |
| UGGGGAGACUACGAUGACAGCGCCUUCAUGGAGCCCAGGUACCACGUCCGUGGAGAAGAUCUGGACAAGCUCCACAGAGCUGCCUGGUGG | -0.509 |
| UGGCCCAGGUGGCAUGCGGGGAGGAAGAGGUGGCCUCAUGGAUCGUGGUGGUCCCGGUGGAAUGUUCAGAGGUGGCCGUGGUGGAGACAG | 0.608 |
| UGUAACCUGGGGAUUCUCUCAACUCUCUUGUCCCACACAGACUUCUAUGAGGAAAUCCAGGAGUUUGUGAAAGAUGUCUUUUCACCUAUA | 0.0801 |
| AGUCCUGUGCUACACAUCGUAUGUACCGAAUCGGGAGGGUUUUUGGGUUUUUUUGGGAAAGUAUUAUGUUACGCCGUUCGGAUCUGCACU | 0.298 |
| GGGGACGGCAAAACAGAACAGAAAGGCGGAGAUAAAAAGAGGGGUGUUAAAAGACCACGAGAAGAUCAUGGCCGUGGAUAUUUUGAGUAC | 0.0964 |
| UCAAGUCCUGUGCUACACAUCGUAUGUACCGAAUCGGGCCGGGCCGGGCCGGGGAAAGUAUUAUGUUACGCCGUUCGGAUCUGCACUUCC | -0.636 |
| UAACUUUAGAGGAGGAUCUGAUGGAUAUGGCAGUGGACGUGGAUUUGGGGAUGGCUAUAAUGGGUAUGGAGGAGGACCUGGUGGUGGCAA | -0.488 |
